Experimental data collected from several papers.
“And” joins repeats or separate records; there may be more than shown. ± marks the error that the study gave.
Sequence of UniProt P49116 (whole entry, looked up): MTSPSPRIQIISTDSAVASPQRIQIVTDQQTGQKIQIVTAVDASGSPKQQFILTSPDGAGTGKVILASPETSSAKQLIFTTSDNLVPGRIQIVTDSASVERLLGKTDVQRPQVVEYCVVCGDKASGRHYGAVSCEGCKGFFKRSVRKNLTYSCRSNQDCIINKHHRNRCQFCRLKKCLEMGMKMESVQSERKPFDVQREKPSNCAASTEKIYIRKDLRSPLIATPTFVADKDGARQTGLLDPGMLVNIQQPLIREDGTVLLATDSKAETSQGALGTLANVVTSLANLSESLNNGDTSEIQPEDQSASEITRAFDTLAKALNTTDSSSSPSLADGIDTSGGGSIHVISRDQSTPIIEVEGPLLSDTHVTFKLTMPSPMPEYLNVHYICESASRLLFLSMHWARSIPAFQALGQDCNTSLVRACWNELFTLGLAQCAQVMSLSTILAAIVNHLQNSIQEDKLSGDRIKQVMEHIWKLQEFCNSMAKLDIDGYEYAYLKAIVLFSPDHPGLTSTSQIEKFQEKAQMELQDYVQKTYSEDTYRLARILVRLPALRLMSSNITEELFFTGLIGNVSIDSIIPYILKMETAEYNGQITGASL

CNC(=O)c1ccc(-c2cnc3ncc(Cc4ccc5ncccc5c4)n3n2)cc1F — Malaise dose reduction/interruption (Japanese patients; oral, 400 mg, any grade): 1%
Cc1nc2ccc(OCc3ccc(C(F)(F)F)cc3)cc2[nH]1 — tissue/plasma ratio (male Balb/c mice, lungs; oral, 10 mg/kg, 4 h; reference: tissue over plasma): 3.3 ± 1.5
CCn1cc(C(=O)O)c(=O)c2cc(F)c(N3CCNCC3)cc21 — amount permeated (starch gel membrane permeability; Gram-negative envelope surrogate; 200 µM, 90 min, pH 7.4): 4.79 nmol
O=c1c2ccccc2oc2ccccc12 — solubility (tricaprin-tricaprylin mixture; 75 °C, tricaprin fraction 0.36): 0.108 mole fraction
NC[C@H]1O[C@H](O[C@H]2[C@H](O)[C@@H](O[C@H]3O[C@H](CO)[C@@H](O)[C@H](N)[C@H]3O)[C@H](N)C[C@@H]2N)[C@H](N)C[C@@H]1O — amount permeated (starch gel membrane permeability; Gram-negative envelope surrogate; 200 µM, 90 min, pH 7.4): 2.34 nmol
C=CC(=O)Nc1cc(Nc2nccc(-c3cn(C)c4ccccc34)n2)c(OC)cc1N(C)CCN(C)C — recovery (storage stability; human dried blood spot; 10 d, on ice, LQC level): 70.4%
O=C(Nc1nc2cccc(-c3ccc(CN4CCS(=O)(=O)CC4)cc3)n2n1)C1CC1 — treatment-emergent adverse events (item: metabolism and nutrition disorders; human rheumatoid arthritis patients; oral, 30 mg once daily, 4 weeks, regardless of relatedness): 0%
Cc1cc(Nc2cccc(Cl)c2)nc(-n2nc(C)cc2C)n1 — autosampler stability (mouse, processed plasma samples; 10 °C; time stable): ≥ 36 h
O=C(O)CNC(=O)c1cccc(O)c1 — plasma concentration (human plasma; mean): 9190 nM
N#C[C@@]1(c2ccc3c(N)ncnn23)O[C@H](CO)[C@@H](O)[C@H]1O — recovery (plasma protein binding; dog plasma; 100 µM, time not given): 105%
Cc1nc(-c2cnc(NC(C)C)n(C)c2=O)ccc1Oc1ccnc(-c2cnn(C)c2)c1 — apparent clearance (Beagle dog, male, plasma; oral, 30 mg/kg, crossover study, mean): 19.3 mL/min/kg
O=C(O)/C=C/c1ccc(O)cc1 — plasma concentration (human plasma; mean): 114 nM
Cc1nc2cccc(OCC(C)(C)C(=O)NC(C)C)c2c(N)c1C(=O)O — AUC(0-last) ratio (Sprague-Dawley rat, plasma; oral, 30 mg/kg, day 7; reference: female over male): 1.24 ± 0.16
NC1(C(=O)N[C@@H](CCO)c2ccc(Cl)cc2)CCN(c2nc[nH]c3nccc2-3)CC1 — incidence of Leukopenia (metastatic CRPC patients; dose not given, any grade, treatment-related, all doses, together with: enzalutamide 160 mg daily): 6.7%
CCCCOc1nc(N)c2c(n1)N(Cc1cccc(CN3CCCC3)c1)CC(=O)N2 — drug-related TEAE incidence (item: Photophobia; human; oral, 2 mg): 0%
CCOc1c([C@H](C)n2nc(C)c3c(N)ncnc32)cc(Cl)c(F)c1[C@@H]1CNC(=O)C1 — ECG observations (item: QRS >100 to ≤110 ms; previously treated B-cell malignancy; oral, 30 mg once daily, baseline below thresholds): 3.2%
Cc1ccc(OS(=O)(=O)O)c(O)c1 — plasma concentration (human plasma; median): 29300 nM
COc1ncc(-c2nc3c(n2C(C)C)[C@H](c2ccc(Cl)cc2)N(c2cc(Cl)cn(C)c2=O)C3=O)c(OC)n1 — AUC(0-t) geometric mean (human patients, plasma; oral, 200 mg, 0-24 h, high-dose arm, cycle 2 day 1): 20100 ng·h/mL
N#Cc1ccc2c(c1)[C@H]1CCCN(C(=O)c3ccc4[nH]cnc4c3)[C@H]1C2 — ACTH level change (human; 20 mg, day 7; reference: baseline): 4.3 pmol/L
Cn1cncc1[C@@](N)(c1ccc(Cl)cc1)c1ccc2c(c1)c(-c1cccc(Cl)c1)cc(=O)n2C — accumulation index (human, plasma; oral, 300 mg/m^2; reference: AUC(0-inf) over AUC(0-12h)): 1.2 and 1.03 and 1.36 and 1.17 and 1.09
Cl.[2H]C([2H])([2H])CC(=O)c1cnc(NC(=O)C2CC2)cc1Nc1cccc(-c2ncn(C([2H])([2H])[2H])n2)c1OC — AUC(0-tau) (geometric mean; human; oral, 20 mg twice daily, day 7, fed, liquid, multiple dose): 1570 ng·h/mL
CCCCOC(=O)N1CCN(C(=O)[C@H](CP(=O)(O)O)NC(=O)c2cc(N3CC[C@H](OC)C3)nc(-c3ccccc3)n2)CC1 — change from baseline (item: creatinine; human, serum; 8 mg, 24 h post-dose): 0.8 ± 9.4 µmol/L
CC(C)(C(=O)N1CCOc2c(C#N)cncc2C1)C(F)F — subjects with contact dermatitis TEAE (human, both sexes; oral, 10 mg single dose): 16.7%
CCCN[C@H]1CCc2nc(N)sc2C1 — Kd (Nuclear receptor subfamily 2 group C member 2, ligand-binding domain (Homo sapiens, UniProt P49116); binding): 7.56 nM
Cn1cc(Nc2nc(N)nc(-c3cccc(-n4ccc5cc(C6CC6)cc(F)c5c4=O)c3CO)n2)cn1 — drug-related vomiting incidence (healthy humans, fed; oral tablet, 50 mg twice daily (multiple dose), 14 (unit not given); reference: subjects): 0%
Cc1ccc([C@@H]2O[C@H](CO)[C@@H](O)[C@H](O)[C@H]2O)cc1Cc1ccc(-c2ccc(F)cc2)s1 — urinary calcium excretion change (Japanese type 2 diabetes patients; 100 mg, day 18, 24 h urine collection; reference: baseline): 4.34 mg
COc1ccc2nc([S+]([O-])Cc3ncc(CO)c(OC)c3C)[nH]c2c1 (stereo not shown) — R/S enantiomer ratio fold change (human, dried plasma spots; 2 h, together with: fluvoxamine and voriconazole; reference: inhibited over baseline): 0.34
CCc1cc2ncc(CN3CCN(c4ccc(C(=O)NC)nc4)CC3)cc2[nH]c1=O — Neutrophils count ratio (female rat, blood; oral, 25 mg/kg/day, 4 weeks; reference: vehicle control): 0.55
Cc1cccc(CNC(=O)c2cn(CCNC(=O)c3ccccc3S)c3cc4c(cc3c2=O)OC(F)(F)O4)n1 — Tmax (Sprague-Dawley rat, male, plasma; intramuscular, 30 mg/kg of parent drug): 9.67 ± 7.22 h
CN(C)CCCNC(=O)/C(=C/CCCCC(=O)NO)COc1cccc2ccccc12 — MRT(0-inf) (human; iv, 187.5 mg/m2, day 1, single dose, mean): 7.12 h
C[C@@H]1CN(c2c(F)c(N)c3c(=O)c(C(=O)O)cn(C4CC4)c3c2F)C[C@H](C)N1 — amount permeated (starch gel membrane permeability; Gram-negative envelope surrogate; 200 µM, 60 min, pH 7.4): 1.44 nmol
CCN(Cc1ccc(F)cc1)c1ccc(CO)c(Cl)c1 — ALT (male F344 rat, serum; oral, 100 mg/kg/day, 2 days): 412 U/L
CC(C)[C@H](N)C(=O)NCCCS(=O)(=O)O — AUC(0-24) (human both sexes, plasma; oral, 256.5 mg once daily, day 1, fed capsule): 10400 ng·h/mL
COc1cc(/C=C/C(=O)O)cc(OC)c1O — plasma concentration (human plasma; median): 188 nM
Cc1c2oc3c(C)ccc(C(=O)N[C@@H]4C(=O)N[C@H](C(C)C)C(=O)N5CCC[C@H]5C(=O)N(C)CC(=O)N(C)[C@@H](C(C)C)C(=O)O[C@@H]4C)c3nc-2c(C(=O)N[C@@H]2C(=O)N[C@H](C(C)C)C(=O)N3CCC[C@H]3C(=O)N(C)CC(=O)N(C)[C@@H](C(C)C)C(=O)O[C@@H]2C)c(N)c1=O — minimum plasma concentration (LC-MS; children with cancer, plasma; dose not given, 26 h): 0.7 µg/L
Cc1cc(C)c(CNC(=O)c2cc(Cl)c3c(c2C)O[C@@](C)([C@H]2CC[C@H](N(C)C)CC2)O3)c(=O)[nH]1 — patients with TEAE (item: Dysgeusia; human patients; oral, 200 mg once daily, 1 day onset day 14): 4.2%
COc1ccc2c3c([nH]c2c1)[C@H](CC(C)C)N1C(=O)[C@H](CC(=O)NC(C)C)NC(=O)[C@@H]1C3 — serum concentration (wild-type mouse, male, serum; oral, 100 mg/kg, 12 h): 465 nM and 28.9 nM and 1030 nM and 30.4 nM
Cc1c(C(=O)O)ccc2c3n(nc12)[C@@H]1[C@H](C3)N(CC2CC2)[C@@]2(C(=O)Nc3cc(Cl)ccc32)[C@H]1c1cccc(Cl)c1F — plasma concentration (female BALB/c nude mice, SJSA-1 xenograft, plasma; oral, 1 mg/kg twice daily, 7 h): 509 nM
Cc1ccc(C(=O)N(CCCN)C(c2nc3snc(C)c3c(=O)n2Cc2ccccc2)C(C)C)cc1 (stereo not shown) — patients with adverse events (item: Hyperbilirubinemia; human patients; intravenous, dose not given, CTCAE grade ≥3, all doses): 5%
O=C(c1cccnc1-c1ccncc1)N1CCC(O)(Cc2ccccc2)CC1 — AUClast (healthy Japanese adults, plasma; oral, 100 mg twice daily, day 7): 224 ng·h/mL
O=C(O)CNC(=O)c1ccccc1O — plasma concentration (human plasma; mean): 995 nM
CC(=O)O[C@H]1C[C@@]2(C)[C@@H](C[C@@H](O)[C@H]3[C@@]4(C)CC[C@@H](O)[C@@H](C)[C@@H]4CC[C@@]32C)/C1=C(\CCC=C(C)C)C(=O)O — amount permeated (starch gel membrane permeability; Gram-negative envelope surrogate; 200 µM, 20 min, pH 7.4): 0.09 nmol
O=C(O)[C@H]1O[C@@H](Oc2cc(-c3oc4cc(O)cc(O)c4c(=O)c3O)ccc2O)[C@H](O)[C@@H](O)[C@@H]1O — plasma concentration (human plasma; mean): 105 nM
CCc1cc(C(=O)NC)c2nccc(N3CCc4c(cc(Cn5ccnc5)cc4-c4cn(C)nc4C(F)(F)F)C3=O)c2c1 — lung weight change (Sprague Dawley rat; oral, 100 mg/kg once daily, 7 days; reference: vehicle): 1.77%
CNCc1ccc(-c2[nH]c3cc(F)cc4c3c2CCNC4=O)cc1 — abdominal distension incidence (patients; oral, 600 mg twice daily, grade 2): 0%
CCC(C)n1ncn(-c2ccc(N3CCN(c4ccc(OCC5COC(Cn6cncn6)(c6ccc(Cl)cc6Cl)O5)cc4)CC3)cc2)c1=O (stereo not shown) — trough plasma concentration (human, plasma; oral, dose not given, day 15 predose, mean): 147 ng/mL
O=Cc1cc2c(cc1F)C(=O)N(C1CCC(=O)NC1=O)C2 (stereo not shown) — plasma concentration (cynomolgus monkey, male; oral, 0.3 mg/kg parent drug, 0.5 h): 0.27 ng/mL
COc1ccc(CCC(=O)O)cc1O[C@@H]1O[C@H](C(=O)O)[C@@H](O)[C@H](O)[C@H]1O — plasma concentration (human plasma; mean): 576 nM
C[C@@H](N)C1CCN(S(=O)(=O)c2cccc3cnccc23)CC1 — t1/2 (healthy volunteers, fasted, plasma; oral, 250 mg): 1.03 h
CC(C)C[C@H](NC(=O)[C@@H](Cc1c[nH]c2ccccc12)NC(=O)[C@H](Cc1ccc(O)cc1)NC(=O)[C@H](CO)NC(=O)[C@H](Cc1c[nH]c2ccccc12)NC(=O)[C@H](Cc1c[nH]cn1)NC(=O)[C@@H]1CCC(=O)N1)C(=O)N[C@@H](CCCNC(=N)N)C(=O)N1CCC[C@H]1C(=O)NCC(N)=O — patients, drug-related laboratory TEAEs (Chinese CPP children, girls; intramuscular, 22.5 mg, 12 months, day 1, month 6): 12.9%
COc1ccc2[nH]c([S+]([O-])Cc3ncc(C)c(OC)c3C)nc2c1 (stereo not shown) — AUC(0-inf) (healthy Chinese volunteers, plasma; oral, 20 mg, enteric-coated tablets, CYP2C19 normal metabolizers): 460 ± 337 ng·h/mL
O=C1C[C@@H](c2ccc(O[C@@H]3O[C@H](C(=O)O)[C@@H](O)[C@H](O)[C@H]3O)cc2)Oc2cc(O)cc(O)c21 — plasma concentration (human plasma; median): 656 nM
CCO[C@H]1CCN(Cc2c(OC)cc(C)c3[nH]ccc23)[C@H](c2ccc(C(=O)O)cc2)C1 — incidence of dyspepsia (PNH patients, active haemolysis; oral, 100 mg, 8 weeks, treatment): 0%
CCc1nc(C(N)=O)c(Nc2ccc(N3CCC(N4CCN(C)CC4)CC3)c(OC)c2)nc1NC1CCOCC1 — accumulation ratio (AUC) (Japanese patients, plasma; oral, 40 mg, cycle 1 day 28, multiple doses, mean; reference: single dose): 5.86
O=C(O)CCC(=O)O.[2H]C([2H])([2H])Oc1cc(C)c2[nH]ccc2c1CN1CC[C@@H](C2CC2)C[C@H]1c1ccc(C(=O)O)cc1 — TEAE urinary sediment detected (healthy Chinese subjects; 50 mg, single ascending dose): 0%
O=C(COc1ccc(Cl)cc1)NC12CC(c3nnc([C@H]4C[C@@H](OC(F)(F)F)C4)o3)(C1)C2 — postural dizziness participants (human both sexes; oral, 100 mg once daily, 14 days): 14.3%
Cc1nc(-c2ccc(OCC(C)C)c(C#N)c2)sc1C(=O)O — subjects with abnormal hepatic function (healthy Chinese subjects; oral, 40 mg, fed): 2.5%
CC1=C(Cc2cn(CCO)nn2)C(=O)c2ccccc2C1=O — half-wave potential E1/2 (second) (square wave voltammetry; DMSO; vs Ag/AgCl (3 M KCl), together with: 0.1 M n-Bu4NPF6): -1.28 V

Repeated from above:
N#C[C@@]1(c2ccc3c(N)ncnn23)O[C@H](CO)[C@@H](O)[C@H]1O — recovery (plasma protein binding; dog plasma; 100 µM, time not given): 105%
O=C(O)CCC(=O)O.[2H]C([2H])([2H])Oc1cc(C)c2[nH]ccc2c1CN1CC[C@@H](C2CC2)C[C@H]1c1ccc(C(=O)O)cc1 — TEAE urinary sediment detected (healthy Chinese subjects; 50 mg, single ascending dose): 0%
COc1cc(/C=C/C(=O)O)cc(OC)c1O — plasma concentration (human plasma; median): 188 nM
Cc1nc2cccc(OCC(C)(C)C(=O)NC(C)C)c2c(N)c1C(=O)O — AUC(0-last) ratio (Sprague-Dawley rat, plasma; oral, 30 mg/kg, day 7; reference: female over male): 1.24 ± 0.16
Cc1nc(-c2cnc(NC(C)C)n(C)c2=O)ccc1Oc1ccnc(-c2cnn(C)c2)c1 — apparent clearance (Beagle dog, male, plasma; oral, 30 mg/kg, crossover study, mean): 19.3 mL/min/kg
CNC(=O)c1ccc(-c2cnc3ncc(Cc4ccc5ncccc5c4)n3n2)cc1F — Malaise dose reduction/interruption (Japanese patients; oral, 400 mg, any grade): 1%
Cc1ccc(C(=O)N(CCCN)C(c2nc3snc(C)c3c(=O)n2Cc2ccccc2)C(C)C)cc1 (stereo not shown) — patients with adverse events (item: Hyperbilirubinemia; human patients; intravenous, dose not given, CTCAE grade ≥3, all doses): 5%
